Measurements gathered from unrelated publications.
“And” joins repeats or separate records; there may be more than shown.
ABL1: Tyrosine-protein kinase ABL1 (ABL1, Homo sapiens, UniProt P00519)

COc1c(Cl)cccc1Nc1c(-c2ccncc2C#C[C@@]2(C)CCCN2C(=O)/C=C/CN(C)C)[nH]c2c1C(=O)NCC2 — remaining binding (ABL1 (Homo sapiens, UniProt P00519, E255K); binding, competition with immobilised ligand; 3 µM): 65%
COc1cc(OC)c(F)c(/C=C/c2cnc3ccn(S(=O)(=O)c4cn(CCF)cn4)c3n2)c1F — inhibition (ABL1; 10 nM): 0%
O=C=[N][Ru-4]123([n]4c5ccc(O)cc5c5c6c(c7cc(F)c[n+]1c7c54)C(=O)NC6=O)[S+]1CC[S+]2CC[S+]3CC1 (centres unmarked) — remaining activity (ABL1 (Homo sapiens, UniProt P00519, M351T); enzyme activity; 100 nM, human enzyme, together with: 10 µM ATP; reference: untreated): 106%
COCC12C(=O)NC3C4(C(OC)CC1O)C1CC5(O)C(OC)C(O)C(OC(C)=O)(C1C5OC(=O)c1ccccc1)C3(O)C(OC)C24 (centres unmarked) — remaining activity (ABL1; kinase activity, inhibitor, ProQinase kinase profiling; 25 µM; reference: control): 94% and 101%
O=C(O)CCC(=O)c1cccc(NS(=O)(=O)c2c[nH]c3ncccc23)c1 — remaining activity (ABL1; kinase activity, radiometric; 10 µM): 96%
[2H]c1cc(C)c(NC(=O)c2cnc(Nc3cc(N4CC[C@H](N)C4)nc(C)n3)s2)c(Cl)c1 — inhibition (ABL1; enzyme activity, inhibitor; 1 nM): 87%
CNC(=O)C[C@H](Cc1ccc(C#N)cc1)NC(=O)c1cc(-c2ccc(CN[C@H](C)c3ccc(C)cc3)o2)ccc1Cl — activity vs control (ABL1; enzyme activity, inhibitor; 1 µM): 95%
CN1CCN(Cc2ccc(NC(=O)c3cccc(C#Cc4cnc(N)c5ncccc45)c3)cc2C(F)(F)F)CC1 — remaining binding (Tyrosine-protein kinase ABL1, phosphorylated (ABL1, Homo sapiens, UniProt P00519); cell-free assay, competition with immobilised ligand; 50 nM): 1.3%
C=CC(=O)N1Cc2nc(-c3cc(-c4cc(Cl)cnc4Cl)c(F)cc3F)n(-c3ccncn3)c2C1 — inhibition (ABL1; cell-free assay, inhibitor; 1 µM): 10.1%
C=CS(=O)(=O)Oc1ccc(OC)c(-c2c[nH]c3ncc(-c4cncc(C(=O)N(C)C)c4)cc23)c1 — kinact (ABL1; cell-free assay, inhibitor, mass spectrometry): 0.00066 s⁻¹
Nc1ncc(-c2cc(-c3cnn(CC(F)(F)F)c3)ncc2F)nc1C(=O)NC1CNCC(F)C1 (centres unmarked) — remaining activity (ABL1; enzyme activity; 1 µM; reference: DMSO control): 102%
COc1c(OCCCN2CCOCC2)ccc2c1N=C(NC(=O)c1cnc(N)nc1)N1CCN=C21 — remaining activity (ABL1; kinase activity, inhibitor; 1 µM; reference: untreated control): 106%
C=CC(=O)Nc1cccc(-c2cnc3[nH]cc(C(=O)NC(C)(C)C)c3n2)c1 — inhibition (ABL1; enzyme activity, inhibitor; 0.1 µM): 17%
O=c1c(-c2ccc(Cl)c(CN3CCOCC3)c2)coc2cc(O)ccc12 — remaining activity (ABL1; enzyme activity, inhibitor; 1 µM): 114%
COc1ccc(NC(=O)Nc2ccc3c(c2)C(=O)N(C(C)CO)CC(C)C(CN(C)Cc2ccc4c(c2)OCO4)O3)cc1 (centres unmarked) — remaining activity (ABL1; kinase activity; 0.03 µM; reference: control): 83%
NC(=O)C[C@H]1CCc2sc3ncnc(O[C@H]4CC[C@H](N5CCOCC5)CC4)c3c21 — inhibition (ABL1; enzyme activity, inhibitor; 10 µM): 4%
Cc1cccc(O[C@H]2CCC[C@@H](C(C)CNCc3ccncc3)C2)c1 (relative stereo) — inhibition (ABL1; enzyme activity, inhibitor; 1 µM): -12%
CN1CCN(Cc2ccc(-c3ccc(CO[C@H]4CCC[C@@H]4NC(=O)c4cc(-c5cnn(C)c5)cnc4N)cc3)cc2)CC1 — inhibition (ABL1; enzyme activity, inhibitor; 0.1 µM): -1%
C=CC(=O)Oc1ccc(OC)c(-c2c[nH]c3ncc(-c4cncc(C(=O)N(C)C)c4)cc23)c1 — covalent adduct formation (ABL1; intact protein MS; 100 µM, 12 h, ABL kinase domain 10 µM): ~16%
CCN1CCN(Cc2ccc(NC(=O)c3ccc(C)c(NC(=O)c4cncc(-c5cccs5)c4)c3)cc2C(F)(F)F)CC1 — remaining binding (ABL1 (Homo sapiens, UniProt P00519, Q252H); binding, competition with immobilised ligand; 1 µM): 0.45%

Excerpt of the above:
[2H]c1cc(C)c(NC(=O)c2cnc(Nc3cc(N4CC[C@H](N)C4)nc(C)n3)s2)c(Cl)c1 — inhibition (ABL1; enzyme activity, inhibitor; 1 nM): 87%
CNC(=O)C[C@H](Cc1ccc(C#N)cc1)NC(=O)c1cc(-c2ccc(CN[C@H](C)c3ccc(C)cc3)o2)ccc1Cl — activity vs control (ABL1; enzyme activity, inhibitor; 1 µM): 95%
CN1CCN(Cc2ccc(NC(=O)c3cccc(C#Cc4cnc(N)c5ncccc45)c3)cc2C(F)(F)F)CC1 — remaining binding (Tyrosine-protein kinase ABL1, phosphorylated (ABL1, Homo sapiens, UniProt P00519); cell-free assay, competition with immobilised ligand; 50 nM): 1.3%
